{"data": "Measurements pooled from the literature", "VHL/BRD9": "VHL/BRD9 (Homo sapiens, UniProt P40337+Q9H8M2)", "CALCR": "Calcitonin receptor (CALCR, Homo sapiens, UniProt P30988)", "note": "Protocols differ between the studies behind these lines.", "chain of UniProt P30988 (whole entry, looked up)": "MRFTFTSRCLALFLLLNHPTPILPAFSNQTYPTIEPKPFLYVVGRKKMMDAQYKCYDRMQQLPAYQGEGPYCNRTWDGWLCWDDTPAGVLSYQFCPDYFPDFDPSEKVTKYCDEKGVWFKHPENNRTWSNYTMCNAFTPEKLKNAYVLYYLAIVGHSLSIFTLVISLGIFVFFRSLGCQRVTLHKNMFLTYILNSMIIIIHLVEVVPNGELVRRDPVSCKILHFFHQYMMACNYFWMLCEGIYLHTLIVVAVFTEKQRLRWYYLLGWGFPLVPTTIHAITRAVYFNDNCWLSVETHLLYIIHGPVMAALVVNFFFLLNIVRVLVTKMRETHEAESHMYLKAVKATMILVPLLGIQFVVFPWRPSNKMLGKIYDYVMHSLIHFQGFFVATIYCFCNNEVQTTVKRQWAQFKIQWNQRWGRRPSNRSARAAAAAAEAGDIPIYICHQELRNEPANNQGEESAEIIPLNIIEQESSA", "chain of UniProt Q9H8M2 (whole entry, looked up)": "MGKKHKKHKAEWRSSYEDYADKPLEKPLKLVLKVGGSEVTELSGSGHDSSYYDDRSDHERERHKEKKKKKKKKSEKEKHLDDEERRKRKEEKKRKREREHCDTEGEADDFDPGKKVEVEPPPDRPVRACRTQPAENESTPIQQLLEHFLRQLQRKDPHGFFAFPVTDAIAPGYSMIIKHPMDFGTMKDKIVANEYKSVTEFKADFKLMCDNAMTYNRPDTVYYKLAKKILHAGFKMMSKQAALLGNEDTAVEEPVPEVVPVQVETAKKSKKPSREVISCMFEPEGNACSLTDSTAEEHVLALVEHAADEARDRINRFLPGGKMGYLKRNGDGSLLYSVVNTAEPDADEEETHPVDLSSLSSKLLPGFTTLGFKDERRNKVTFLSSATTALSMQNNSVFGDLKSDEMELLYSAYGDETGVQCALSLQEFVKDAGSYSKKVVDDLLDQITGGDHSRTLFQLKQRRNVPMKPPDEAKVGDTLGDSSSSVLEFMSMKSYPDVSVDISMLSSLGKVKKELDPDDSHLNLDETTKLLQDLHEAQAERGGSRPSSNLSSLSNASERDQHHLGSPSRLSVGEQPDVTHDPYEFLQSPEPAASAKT", "chain of UniProt P40337 (whole entry, looked up)": "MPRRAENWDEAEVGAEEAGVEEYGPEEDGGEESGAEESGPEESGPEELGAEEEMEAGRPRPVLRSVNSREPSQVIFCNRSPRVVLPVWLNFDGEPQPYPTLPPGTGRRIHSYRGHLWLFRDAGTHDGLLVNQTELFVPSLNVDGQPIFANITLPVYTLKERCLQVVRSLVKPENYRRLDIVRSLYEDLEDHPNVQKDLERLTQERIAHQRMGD", "chain of UniProt O00398 (whole entry, looked up)": "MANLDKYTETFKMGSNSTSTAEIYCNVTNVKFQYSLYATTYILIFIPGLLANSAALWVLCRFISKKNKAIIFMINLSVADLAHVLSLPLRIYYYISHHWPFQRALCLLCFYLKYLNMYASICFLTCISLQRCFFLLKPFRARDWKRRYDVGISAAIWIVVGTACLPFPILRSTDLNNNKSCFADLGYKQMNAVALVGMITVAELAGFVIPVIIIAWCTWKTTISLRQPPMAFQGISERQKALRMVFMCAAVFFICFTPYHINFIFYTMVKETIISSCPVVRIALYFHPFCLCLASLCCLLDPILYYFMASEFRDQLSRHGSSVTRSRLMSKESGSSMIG", "chain of UniProt Q92847 (whole entry, unmodified, looked up)": "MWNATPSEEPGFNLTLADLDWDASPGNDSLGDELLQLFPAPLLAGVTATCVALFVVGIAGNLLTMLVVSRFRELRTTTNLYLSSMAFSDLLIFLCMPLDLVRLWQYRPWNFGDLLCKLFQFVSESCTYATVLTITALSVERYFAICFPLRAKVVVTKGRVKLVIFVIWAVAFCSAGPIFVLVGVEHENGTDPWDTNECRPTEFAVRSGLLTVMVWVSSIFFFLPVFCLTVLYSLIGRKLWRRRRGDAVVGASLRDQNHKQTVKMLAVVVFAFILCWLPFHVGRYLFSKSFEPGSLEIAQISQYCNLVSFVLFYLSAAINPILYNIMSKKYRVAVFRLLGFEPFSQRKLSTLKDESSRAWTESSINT", "chain of UniProt P25103 (whole entry, looked up)": "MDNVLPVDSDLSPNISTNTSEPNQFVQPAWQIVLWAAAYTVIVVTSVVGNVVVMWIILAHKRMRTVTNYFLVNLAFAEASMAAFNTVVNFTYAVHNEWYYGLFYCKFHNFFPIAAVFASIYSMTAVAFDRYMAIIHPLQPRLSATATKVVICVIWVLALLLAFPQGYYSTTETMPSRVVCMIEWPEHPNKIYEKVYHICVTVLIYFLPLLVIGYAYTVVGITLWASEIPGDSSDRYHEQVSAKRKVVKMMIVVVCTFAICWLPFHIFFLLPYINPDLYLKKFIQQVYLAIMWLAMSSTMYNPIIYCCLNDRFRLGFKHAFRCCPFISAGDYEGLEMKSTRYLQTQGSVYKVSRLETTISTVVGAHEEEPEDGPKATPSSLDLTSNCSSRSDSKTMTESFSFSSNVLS", "chain of UniProt P61981 (whole entry, looked up)": "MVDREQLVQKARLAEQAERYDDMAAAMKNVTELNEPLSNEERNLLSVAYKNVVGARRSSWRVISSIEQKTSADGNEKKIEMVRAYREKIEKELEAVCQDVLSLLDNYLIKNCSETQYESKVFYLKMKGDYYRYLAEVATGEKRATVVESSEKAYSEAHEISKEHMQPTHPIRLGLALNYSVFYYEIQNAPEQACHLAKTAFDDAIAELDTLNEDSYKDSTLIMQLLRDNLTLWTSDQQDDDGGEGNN", "chain of UniProt P53041 (whole entry, looked up)": "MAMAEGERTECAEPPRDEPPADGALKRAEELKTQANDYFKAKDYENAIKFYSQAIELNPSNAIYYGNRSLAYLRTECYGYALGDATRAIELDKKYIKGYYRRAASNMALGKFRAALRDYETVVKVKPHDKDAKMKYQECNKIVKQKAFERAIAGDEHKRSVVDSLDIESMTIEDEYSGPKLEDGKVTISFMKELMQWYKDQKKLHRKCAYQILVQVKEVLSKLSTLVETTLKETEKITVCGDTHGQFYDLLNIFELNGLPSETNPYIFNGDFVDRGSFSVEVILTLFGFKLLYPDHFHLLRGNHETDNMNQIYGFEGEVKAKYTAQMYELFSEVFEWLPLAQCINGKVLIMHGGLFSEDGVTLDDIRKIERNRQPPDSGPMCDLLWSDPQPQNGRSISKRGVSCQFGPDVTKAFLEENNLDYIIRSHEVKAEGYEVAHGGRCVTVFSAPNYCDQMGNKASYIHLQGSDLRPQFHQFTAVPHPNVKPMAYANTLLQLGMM", "chain of UniProt Q04206 (whole entry, looked up)": "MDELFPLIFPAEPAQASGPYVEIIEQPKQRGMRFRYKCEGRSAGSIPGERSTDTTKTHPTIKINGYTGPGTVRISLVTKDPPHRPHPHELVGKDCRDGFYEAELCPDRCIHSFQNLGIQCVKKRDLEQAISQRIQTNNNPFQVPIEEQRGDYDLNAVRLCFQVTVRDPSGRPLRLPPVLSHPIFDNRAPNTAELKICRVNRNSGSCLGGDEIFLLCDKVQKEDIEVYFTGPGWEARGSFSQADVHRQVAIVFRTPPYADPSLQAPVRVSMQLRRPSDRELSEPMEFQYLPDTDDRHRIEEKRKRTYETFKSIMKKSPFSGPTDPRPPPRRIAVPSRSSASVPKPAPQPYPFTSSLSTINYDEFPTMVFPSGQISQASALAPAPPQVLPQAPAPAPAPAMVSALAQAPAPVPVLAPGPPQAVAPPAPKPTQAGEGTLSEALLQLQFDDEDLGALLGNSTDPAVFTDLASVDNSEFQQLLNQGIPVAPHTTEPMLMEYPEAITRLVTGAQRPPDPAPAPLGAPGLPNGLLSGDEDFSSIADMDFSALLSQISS", "chain of UniProt P49286 (whole entry, looked up)": "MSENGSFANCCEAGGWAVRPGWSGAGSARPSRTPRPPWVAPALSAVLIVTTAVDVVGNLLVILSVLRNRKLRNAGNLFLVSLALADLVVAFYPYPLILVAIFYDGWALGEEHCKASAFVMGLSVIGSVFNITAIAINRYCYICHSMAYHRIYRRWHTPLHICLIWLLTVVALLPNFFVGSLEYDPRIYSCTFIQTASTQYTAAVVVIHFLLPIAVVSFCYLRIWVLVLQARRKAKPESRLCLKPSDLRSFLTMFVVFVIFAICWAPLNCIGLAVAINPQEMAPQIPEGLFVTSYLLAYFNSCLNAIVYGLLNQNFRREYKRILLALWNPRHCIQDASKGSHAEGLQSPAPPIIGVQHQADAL"}
{"Structure (SMILES)": "CC(=O)NCCN(c1nc(N2CC(Oc3ccccc3)C2)nc(N2CC3C(CCOc4cc(-c5scnc5C)ccc4CNC(=O)[C@@H]4C[C@@H](O)CN4C(=O)[C@@H](NC(=O)C4(F)CC4)C(C)(C)C)C3C2)n1)C(C)C (stereo partly shown)", "target": "VHL/BRD9", "assay": "ternary complex formation, NanoBiT", "test system": "HEK293T", "setting": "2 h, together with: MLN4924 2 µM", "EC50 [µM]": 0.033}
{"Structure (SMILES)": "CC[C@H](C)[C@@H](C(=O)N[C@@H](CC(C)C)C(=O)N[C@@H](CO)C(=O)N[C@@H](CO)C(=O)N[C@H](C(=O)N[C@@H](CCC(=O)O)C(=O)N[C@H](C(=O)NCC(=O)N[C@@H](CO)C(=O)N[C@@H](CC(N)=O)C(=O)N[C@H](C(=O)N1C[C@H](O)C[C@H]1C(N)=O)[C@@H](C)O)C(C)C)[C@@H](C)O)N(C)C(=O)[C@H](C)NC(=O)CN(C)C(=O)[C@H](Cc1ccccc1)NC(=O)[C@H](CO)NC(=O)[C@H](CO)NC(=O)[C@H](CCCNC(=N)N)NC(=O)[C@H](CCC(N)=O)NC(=O)[C@H](CC(C)C)NC(=O)[C@H](Cc1ccccc1)NC(=O)[C@H](Cc1c[nH]cn1)NC(=O)[C@H](C)NC(=O)[C@H](CC(C)C)NC(=O)[C@H](CCCNC(=N)N)NC(=O)[C@H](CCC(=O)O)NC(=O)[C@@H](NC(=O)[C@H](C)NC(=O)[C@@H]1CC(=O)NC[C@H](NC(=O)[C@H](CCCNC(=N)N)NC(=O)CC[C@H](NC(=O)CCCCCCCCCCCCCCCCCCC(=O)O)C(=O)O)C(=O)NCC(=O)N[C@@H]([C@@H](C)O)C(=O)N[C@@H](C)C(=O)N[C@@H]([C@@H](C)O)C(=O)N1)[C@@H](C)O", "target": "CALCR", "assay": "cAMP, agonist", "EC50 [µM]": "> 10"}
{"Structure (SMILES)": "O=C(Cc1ccc(OCc2ccccc2)cc1)NC1(C(=O)O)CCN(C(=O)c2ccc(-c3cccc(Cl)c3)cc2)CC1", "target": "Putative P2Y purinoceptor 10 (Homo sapiens, UniProt O00398)", "assay": "TGF-alpha shedding, agonist", "EC50 [µM]": "> 10"}
{"Structure (SMILES)": "Cn1c(=O)n(C2CCC(=O)NC2=O)c2ccc(C3CCN(CC(=O)Nc4cccc(CS(=O)(=O)N5CC[C@H](Nc6cccc(-c7sc(C(=O)O)c(OCC(=O)O)c7Cl)c6)CC5(C)C)c4)CC3)cc21 (stereo partly shown)", "target": "Serine/threonine-protein phosphatase 5 (Homo sapiens, UniProt P53041)", "assay": "phosphatase activity", "setting": "together with: DiFMUP substrate", "EC50 [µM]": "> 10"}
{"Structure (SMILES)": "C#CCN1CCN(c2nc(N3CCN(c4ccc(Cc5cc(CNC(=O)[C@@H]6C[C@@H](O)CN6C(=O)[C@@H](NC(=O)C6(F)CC6)C(C)(C)C)c(O)cc5-c5scnc5C)cc4)CC3)nc(N3CCN(C(=O)C4CC4)C3)n2)CC1=O", "target": "VHL/BRD9, with Elongin B/C (Homo sapiens, UniProt P40337+Q9H8M2)", "assay": "ternary complex formation, AlphaScreen", "setting": "together with: 50 nM His-BRD9 and 20 nM biotin-VCB", "EC50 [µM]": 3.29}
{"Structure (SMILES)": "COc1cccc(S(=O)(=O)Oc2cc(C=O)ccc2[N+](=O)[O-])c1", "target": "YWHAG/RELA, phospho-Ser45 p65 peptide (Homo sapiens, UniProt P61981+Q04206)", "assay": "ternary complex formation, stabilizer, fluorescence anisotropy", "EC50 [µM]": "> 1000"}
{"Structure (SMILES)": "COc1ccc2[nH]c(-c3cccc4ccccc34)c(CCNC(=O)CI)c2n1", "target": "Melatonin receptor type 1B (MTNR1B, Homo sapiens, UniProt P49286)", "assay": "cAMP, agonist, TR-FRET", "EC50 [µM]": 3.31}
{"Structure (SMILES)": "CC[C@H](C)[C@@H](C(=O)N[C@@H](CC(C)C)C(=O)N[C@@H](CO)C(=O)N[C@@H](CO)C(=O)N[C@H](C(=O)N[C@@H](CCC(=O)O)C(=O)N[C@H](C(=O)NCC(=O)N[C@@H](CO)C(=O)N[C@@H](CC(N)=O)C(=O)N[C@H](C(=O)N1C[C@H](O)C[C@H]1C(N)=O)[C@@H](C)O)C(C)C)[C@@H](C)O)N(C)C(=O)[C@H](C)NC(=O)CN(C)C(=O)[C@H](Cc1ccccc1)NC(=O)[C@H](CO)NC(=O)[C@H](CO)NC(=O)[C@H](CCCNC(=N)N)NC(=O)[C@H](CCC(N)=O)NC(=O)[C@H](CC(C)C)NC(=O)[C@H](Cc1ccccc1)NC(=O)[C@H](Cc1c[nH]cn1)NC(=O)[C@H](C)NC(=O)[C@H](CC(C)C)NC(=O)[C@H](CCCNC(=N)N)NC(=O)[C@H](CCC(=O)O)NC(=O)[C@@H](NC(=O)[C@H](C)NC(=O)[C@@H]1CCCC(=O)NC[C@H](NC(=O)[C@H](CCCNC(=N)N)NC(=O)CC[C@H](NC(=O)CCCCCCCCCCCCCCCCCCC(=O)O)C(=O)O)C(=O)NCC(=O)N[C@@H]([C@@H](C)O)C(=O)N[C@@H](C)C(=O)N[C@@H]([C@@H](C)O)C(=O)N1)[C@@H](C)O", "target": "CALCR", "assay": "cAMP, agonist", "EC50 [µM]": 0.000562}
{"Structure (SMILES)": "CC(=O)NCC1CCCCN1c1nc(NCCn2nnc(C)n2)nc(N2CC3C(CCOc4cc(-c5scnc5C)ccc4CNC(=O)[C@@H]4C[C@@H](O)CN4C(=O)[C@@H](NC(=O)C4(F)CC4)C(C)(C)C)C3C2)n1 (stereo partly shown)", "target": "VHL/BRD9", "assay": "ternary complex formation, NanoBiT", "test system": "HEK293T", "setting": "2 h, together with: MLN4924 2 µM", "EC50 [µM]": 0.024}
{"Structure (SMILES)": "CSCC[C@H](NC(=O)[C@H](CC(C)C)NC(=O)CNC(=O)[C@H](Cc1ccccc1)NC(=O)[C@H](Cc1ccccc1)NC(=O)[C@@H](N)CCC(N)=O)C(N)=O", "target": "Substance-P receptor (TACR1, Homo sapiens, UniProt P25103)", "EC50 [µM]": 0.0631}
{"Structure (SMILES)": "CC[C@H](C)[C@@H](C(=O)N[C@@H](CC(C)C)C(=O)N[C@@H](CO)C(=O)N[C@@H](CO)C(=O)N[C@H](C(=O)N[C@@H](CCC(=O)O)C(=O)N[C@H](C(=O)NCC(=O)N[C@@H](CO)C(=O)N[C@@H](CO)C(=O)N[C@H](C(=O)N1CCC[C@H]1C(N)=O)[C@@H](C)O)C(C)C)[C@@H](C)O)N(C)C(=O)[C@H](C)NC(=O)CN(C)C(=O)[C@H](Cc1ccccc1)NC(=O)[C@H](CO)NC(=O)[C@H](CO)NC(=O)[C@H](CCCNC(=N)N)NC(=O)[C@H](CCC(N)=O)NC(=O)[C@H](CC(C)C)NC(=O)[C@H](Cc1ccccc1)NC(=O)[C@H](Cc1c[nH]cn1)NC(=O)[C@H](C)NC(=O)[C@H](CC(C)C)NC(=O)[C@H](CCCNC(=N)N)NC(=O)[C@H](CCC(=O)O)NC(=O)[C@@H](NC(=O)[C@H](C)NC(=O)[C@@H]1CSSC[C@H](NC(=O)[C@H](CCCNC(=N)N)NC(=O)CC[C@H](NC(=O)CCCCCCCCCCCCCCCCCCC(=O)O)C(=O)O)C(=O)NCC(=O)N[C@@H]([C@@H](C)O)C(=O)N[C@@H](C)C(=O)N[C@@H]([C@@H](C)O)C(=O)N1)[C@@H](C)O", "target": "CALCR", "assay": "cAMP, agonist", "EC50 [µM]": "8.71e-05"}
{"Structure (SMILES)": "Cn1c(=O)c(C(N)=O)c(N2CCC(Oc3ccc(OC(F)(F)F)cc3)CC2)c2ccccc21", "target": "Diacylglycerol kinase zeta (DGKZ, Homo sapiens, UniProt Q13574)", "assay": "DGKζ-YFP translocation, high-content imaging", "test system": "Jurkat", "EC50 [µM]": "> 3"}
{"Structure (SMILES)": "CC[C@H](C)[C@@H](C(=O)N[C@@H](CC(C)C)C(=O)N[C@@H](CO)C(=O)N[C@@H](CO)C(=O)N[C@H](C(=O)N[C@@H](CC(N)=O)C(=O)N[C@H](C(=O)NCC(=O)N[C@@H](CO)C(=O)N[C@@H](CC(N)=O)C(=O)N[C@H](C(=O)N1CCCC[C@H]1C(N)=O)[C@@H](C)O)C(C)C)[C@@H](C)O)N(C)C(=O)[C@H](C)NC(=O)CN(C)C(=O)[C@H](Cc1ccccc1)NC(=O)[C@H](CC(N)=O)NC(=O)[C@H](CC(N)=O)NC(=O)[C@H](CO)NC(=O)[C@H](CO)NC(=O)[C@H](CCCNC(=N)N)NC(=O)[C@H](Cc1c[nH]cn1)NC(=O)[C@H](CC(C)C)NC(=O)[C@H](Cc1ccccc1)NC(=O)[C@H](CCC(=O)O)NC(=O)[C@H](C)NC(=O)[C@H](CC(C)C)NC(=O)[C@H](CCCNC(=N)N)NC(=O)[C@H](CCC(N)=O)NC(=O)[C@@H](NC(=O)[C@H](C)NC(=O)[C@@H]1CSSC[C@H](NC(=O)[C@H](CCCNC(=N)N)NC(=O)CC[C@H](NC(=O)CCCCCCCCCCCCCCCCCCC(=O)O)C(=O)O)C(=O)N[C@@H](CC(N)=O)C(=O)N[C@@H]([C@@H](C)O)C(=O)N[C@@H](C)C(=O)N[C@@H]([C@@H](C)O)C(=O)N1)[C@@H](C)O", "target": "CALCR", "assay": "cAMP, agonist", "EC50 [µM]": 0.000355}
{"Structure (SMILES)": "Cc1ncsc1-c1ccc(CNC(=O)[C@@H]2C[C@@H](O)CN2C(=O)[C@@H](NC(=O)C2(F)CC2)C(C)(C)C)c(OCCC2CN(c3nc(NCC(C)(C)C4(O)CCOC4)nc(N4CCC[C@H]4Cn4ccnn4)n3)C2)c1 (stereo partly shown)", "target": "VHL/BRD9", "assay": "ternary complex formation, NanoBiT", "test system": "HEK293T", "setting": "2 h, together with: MLN4924 2 µM", "EC50 [µM]": 0.517}
{"Structure (SMILES)": "COc1ccc(C(=O)c2c(C(=O)NCCCN(C)C)oc3ccc(Cl)cc3c2=O)cc1OC", "target": "Growth hormone secretagogue receptor type 1 (GHSR, Homo sapiens, UniProt Q92847, L149G)", "assay": "beta-arrestin-2 recruitment, BRET", "test system": "HEK293T", "setting": "60 min", "EC50 [µM]": 0.457}
{"Structure (SMILES)": "CC[C@H](C)[C@@H](C(=O)N[C@@H](CC(C)C)C(=O)N[C@@H](CO)C(=O)N[C@@H](CO)C(=O)N[C@H](C(=O)N[C@@H](CC(N)=O)C(=O)N[C@H](C(=O)NCC(=O)N[C@@H](CO)C(=O)N[C@@H](CC(N)=O)C(=O)N[C@H](C(=O)N[C@@H](Cc1ccc(O)cc1)C(N)=O)[C@@H](C)O)C(C)C)[C@@H](C)O)N(C)C(=O)[C@H](C)NC(=O)CN(C)C(=O)[C@H](Cc1ccccc1)NC(=O)[C@H](CC(N)=O)NC(=O)[C@H](CC(N)=O)NC(=O)[C@H](CO)NC(=O)[C@H](CO)NC(=O)[C@H](CCCNC(=N)N)NC(=O)[C@H](Cc1c[nH]cn1)NC(=O)[C@H](CC(C)C)NC(=O)[C@H](Cc1ccccc1)NC(=O)[C@H](CCC(=O)O)NC(=O)[C@H](C)NC(=O)[C@H](CC(C)C)NC(=O)[C@H](CCCNC(=N)N)NC(=O)[C@H](CCC(N)=O)NC(=O)[C@@H](NC(=O)[C@H](C)NC(=O)[C@@H]1CSSC[C@H](NC(=O)[C@H](CCCNC(=N)N)NC(=O)CC[C@H](NC(=O)CCCCCCCCCCCCCCCCCCC(=O)O)C(=O)O)C(=O)N[C@@H](CC(N)=O)C(=O)N[C@@H]([C@@H](C)O)C(=O)N[C@@H](C)C(=O)N[C@@H]([C@@H](C)O)C(=O)N1)[C@@H](C)O", "target": "CALCR", "assay": "cAMP, agonist", "EC50 [µM]": 0.000562}
{"note": "Repeated from above:"}
{"Structure (SMILES)": "O=C(Cc1ccc(OCc2ccccc2)cc1)NC1(C(=O)O)CCN(C(=O)c2ccc(-c3cccc(Cl)c3)cc2)CC1", "target": "Putative P2Y purinoceptor 10 (Homo sapiens, UniProt O00398)", "assay": "TGF-alpha shedding, agonist", "EC50 [µM]": "> 10"}
{"Structure (SMILES)": "C#CCN1CCN(c2nc(N3CCN(c4ccc(Cc5cc(CNC(=O)[C@@H]6C[C@@H](O)CN6C(=O)[C@@H](NC(=O)C6(F)CC6)C(C)(C)C)c(O)cc5-c5scnc5C)cc4)CC3)nc(N3CCN(C(=O)C4CC4)C3)n2)CC1=O", "target": "VHL/BRD9, with Elongin B/C (Homo sapiens, UniProt P40337+Q9H8M2)", "assay": "ternary complex formation, AlphaScreen", "setting": "together with: 50 nM His-BRD9 and 20 nM biotin-VCB", "EC50 [µM]": 3.29}
{"Structure (SMILES)": "CC(=O)NCC1CCCCN1c1nc(NCCn2nnc(C)n2)nc(N2CC3C(CCOc4cc(-c5scnc5C)ccc4CNC(=O)[C@@H]4C[C@@H](O)CN4C(=O)[C@@H](NC(=O)C4(F)CC4)C(C)(C)C)C3C2)n1 (stereo partly shown)", "target": "VHL/BRD9", "assay": "ternary complex formation, NanoBiT", "test system": "HEK293T", "setting": "2 h, together with: MLN4924 2 µM", "EC50 [µM]": 0.024}
